# Measurements from different studies.
# A part holds a random share of what one study measured.
# UniProt O00238, sequence (whole entry, looked up): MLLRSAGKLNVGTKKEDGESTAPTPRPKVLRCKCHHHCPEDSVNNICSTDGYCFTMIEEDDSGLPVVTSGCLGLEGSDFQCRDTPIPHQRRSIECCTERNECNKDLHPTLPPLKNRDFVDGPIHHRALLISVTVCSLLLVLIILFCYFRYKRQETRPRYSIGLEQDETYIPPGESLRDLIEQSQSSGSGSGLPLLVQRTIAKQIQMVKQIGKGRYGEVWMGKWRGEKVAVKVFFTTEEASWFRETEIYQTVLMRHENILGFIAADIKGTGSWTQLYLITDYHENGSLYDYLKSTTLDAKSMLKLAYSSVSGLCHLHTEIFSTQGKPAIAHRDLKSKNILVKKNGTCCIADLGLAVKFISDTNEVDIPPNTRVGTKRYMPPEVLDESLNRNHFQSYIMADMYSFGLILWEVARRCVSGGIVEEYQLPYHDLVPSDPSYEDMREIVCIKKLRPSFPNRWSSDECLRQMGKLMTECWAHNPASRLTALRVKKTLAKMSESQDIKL
# UniProt O75582, sequence (whole entry, looked up): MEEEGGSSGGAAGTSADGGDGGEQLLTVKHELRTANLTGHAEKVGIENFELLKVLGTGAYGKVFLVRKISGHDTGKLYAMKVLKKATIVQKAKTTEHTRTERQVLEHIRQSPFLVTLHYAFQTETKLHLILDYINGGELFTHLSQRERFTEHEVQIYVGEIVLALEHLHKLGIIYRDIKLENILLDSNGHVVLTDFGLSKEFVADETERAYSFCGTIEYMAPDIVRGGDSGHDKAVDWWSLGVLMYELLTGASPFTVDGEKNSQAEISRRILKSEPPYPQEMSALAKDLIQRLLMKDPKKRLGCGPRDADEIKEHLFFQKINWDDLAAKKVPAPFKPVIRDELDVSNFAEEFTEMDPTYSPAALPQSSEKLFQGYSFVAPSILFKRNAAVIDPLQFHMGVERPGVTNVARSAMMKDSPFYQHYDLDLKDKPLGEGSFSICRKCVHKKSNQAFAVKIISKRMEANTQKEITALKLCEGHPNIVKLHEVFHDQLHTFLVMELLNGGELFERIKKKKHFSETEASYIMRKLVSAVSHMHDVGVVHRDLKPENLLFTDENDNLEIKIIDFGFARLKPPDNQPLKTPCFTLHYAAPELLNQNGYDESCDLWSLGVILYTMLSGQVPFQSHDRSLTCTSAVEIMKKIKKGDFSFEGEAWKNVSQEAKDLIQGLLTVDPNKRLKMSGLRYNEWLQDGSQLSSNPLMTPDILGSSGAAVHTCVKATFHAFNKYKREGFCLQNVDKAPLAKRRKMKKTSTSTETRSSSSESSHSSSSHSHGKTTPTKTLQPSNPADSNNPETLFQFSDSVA
# UniProt Q9UIK4, sequence (whole entry, looked up): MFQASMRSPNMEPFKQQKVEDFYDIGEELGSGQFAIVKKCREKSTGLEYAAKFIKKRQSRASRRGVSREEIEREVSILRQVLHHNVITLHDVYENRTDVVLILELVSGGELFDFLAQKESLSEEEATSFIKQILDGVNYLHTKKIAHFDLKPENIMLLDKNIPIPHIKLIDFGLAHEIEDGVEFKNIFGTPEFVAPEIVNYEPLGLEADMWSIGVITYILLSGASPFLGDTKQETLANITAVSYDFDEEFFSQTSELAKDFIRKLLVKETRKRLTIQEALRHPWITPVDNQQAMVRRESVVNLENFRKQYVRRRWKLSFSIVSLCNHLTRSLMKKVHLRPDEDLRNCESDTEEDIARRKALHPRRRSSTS
# UniProt Q13153, sequence (whole entry, looked up): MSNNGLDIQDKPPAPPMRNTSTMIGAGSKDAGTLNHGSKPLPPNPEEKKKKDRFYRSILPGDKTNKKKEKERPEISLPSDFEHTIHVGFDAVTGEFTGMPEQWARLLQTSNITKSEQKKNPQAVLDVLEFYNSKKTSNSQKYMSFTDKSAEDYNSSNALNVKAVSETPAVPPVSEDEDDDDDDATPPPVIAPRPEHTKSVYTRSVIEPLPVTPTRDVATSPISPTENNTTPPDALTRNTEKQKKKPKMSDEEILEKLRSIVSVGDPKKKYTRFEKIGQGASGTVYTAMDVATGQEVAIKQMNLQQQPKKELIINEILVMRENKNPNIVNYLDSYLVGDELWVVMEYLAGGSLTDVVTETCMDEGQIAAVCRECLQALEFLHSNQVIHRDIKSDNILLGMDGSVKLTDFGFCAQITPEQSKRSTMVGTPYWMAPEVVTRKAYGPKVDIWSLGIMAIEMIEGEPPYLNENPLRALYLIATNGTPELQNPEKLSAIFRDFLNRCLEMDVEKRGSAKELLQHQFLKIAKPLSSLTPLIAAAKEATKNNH
# UniProt P07333, sequence (whole entry, looked up): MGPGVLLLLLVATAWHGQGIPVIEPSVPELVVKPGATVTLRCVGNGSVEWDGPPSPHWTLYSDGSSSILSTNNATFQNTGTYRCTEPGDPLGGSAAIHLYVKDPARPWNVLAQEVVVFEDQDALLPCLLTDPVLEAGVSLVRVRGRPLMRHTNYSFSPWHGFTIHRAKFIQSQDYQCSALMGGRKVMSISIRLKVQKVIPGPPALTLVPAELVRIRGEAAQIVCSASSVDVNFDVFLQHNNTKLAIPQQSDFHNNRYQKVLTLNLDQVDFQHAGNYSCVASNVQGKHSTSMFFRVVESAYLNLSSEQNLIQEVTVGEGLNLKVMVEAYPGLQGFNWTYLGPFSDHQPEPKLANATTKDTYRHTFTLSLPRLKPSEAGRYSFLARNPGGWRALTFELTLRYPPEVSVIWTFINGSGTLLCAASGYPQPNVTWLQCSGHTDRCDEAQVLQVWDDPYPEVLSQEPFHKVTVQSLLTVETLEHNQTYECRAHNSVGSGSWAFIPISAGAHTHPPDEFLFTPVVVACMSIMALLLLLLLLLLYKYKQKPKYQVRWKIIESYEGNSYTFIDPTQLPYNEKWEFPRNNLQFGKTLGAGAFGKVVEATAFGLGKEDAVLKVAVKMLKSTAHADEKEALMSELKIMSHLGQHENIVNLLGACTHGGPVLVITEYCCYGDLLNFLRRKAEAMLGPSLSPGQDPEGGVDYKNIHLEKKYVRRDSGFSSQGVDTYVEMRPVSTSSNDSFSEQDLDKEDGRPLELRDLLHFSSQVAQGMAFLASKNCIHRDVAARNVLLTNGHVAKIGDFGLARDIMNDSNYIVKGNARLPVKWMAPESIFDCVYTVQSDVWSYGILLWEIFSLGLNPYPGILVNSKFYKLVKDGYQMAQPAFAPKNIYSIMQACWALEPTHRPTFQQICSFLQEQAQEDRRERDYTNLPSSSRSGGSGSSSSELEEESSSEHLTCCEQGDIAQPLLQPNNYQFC
# UniProt Q15759, sequence (whole entry, looked up): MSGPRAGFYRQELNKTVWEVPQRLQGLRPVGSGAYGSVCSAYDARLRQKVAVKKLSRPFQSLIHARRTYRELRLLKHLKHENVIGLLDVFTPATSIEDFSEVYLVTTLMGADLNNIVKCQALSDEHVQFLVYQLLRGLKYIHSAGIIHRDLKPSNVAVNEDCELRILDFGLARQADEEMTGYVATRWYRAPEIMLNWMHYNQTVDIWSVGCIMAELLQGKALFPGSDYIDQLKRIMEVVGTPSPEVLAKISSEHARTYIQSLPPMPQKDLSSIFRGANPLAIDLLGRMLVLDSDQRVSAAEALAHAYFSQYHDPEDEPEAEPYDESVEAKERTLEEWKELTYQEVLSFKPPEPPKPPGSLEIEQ

# Sample 1
# Structure (SMILES): CCN1/C(=C/C=C2\CCCC(/C=C/C3=[N+](CC)c4ccccc4C3(C)C)=C2NCCCCCCCCN2CCC(Nc3nc4ccccc4n3Cc3ccc(F)cc3)CC2)C(C)(C)c2ccccc21
# Cell line: U-87 MG
# Tested at: concentration not given
# Reference: DMSO
test,log2 fold change
refers to: POLE2 mRNA,-2.26
refers to: GCSH mRNA,-0.837
refers to: GALNTL6 mRNA,6.58
refers to: EBF2 mRNA,-1.3
refers to: ABCB10 mRNA,-1.23
refers to: MRAS mRNA,1.19
refers to: CDH24 mRNA,-1.26
refers to: ALDH1L2 mRNA,1.02
refers to: CARD10 mRNA,-1.65
refers to: CRISPLD2 mRNA,-2.69
refers to: UBE2Z mRNA,0.941
refers to: CNNM4 mRNA,1.09
refers to: H2AC18 mRNA,1.41
refers to: NINJ1 mRNA,1.65
refers to: PDE5A mRNA,-0.838
refers to: WDR45 mRNA,0.853

# Sample 2
# SMILES: Cc1ccc(O)c(C)c1-c1cnc2[nH]c(-c3cnc(N4CCC5(CC4)CC(N4CCN(c6ccc(NC7CCC(=O)NC7=O)cc6F)CC4)CO5)nc3)cc2c1C#N (stereo not shown)
# Target: Membrane-associated tyrosine- and threonine-specific cdc2-inhibitory kinase (PKMYT1, Homo sapiens, UniProt Q99640)
# Action: degrader
# Construct (Q99640 1-499): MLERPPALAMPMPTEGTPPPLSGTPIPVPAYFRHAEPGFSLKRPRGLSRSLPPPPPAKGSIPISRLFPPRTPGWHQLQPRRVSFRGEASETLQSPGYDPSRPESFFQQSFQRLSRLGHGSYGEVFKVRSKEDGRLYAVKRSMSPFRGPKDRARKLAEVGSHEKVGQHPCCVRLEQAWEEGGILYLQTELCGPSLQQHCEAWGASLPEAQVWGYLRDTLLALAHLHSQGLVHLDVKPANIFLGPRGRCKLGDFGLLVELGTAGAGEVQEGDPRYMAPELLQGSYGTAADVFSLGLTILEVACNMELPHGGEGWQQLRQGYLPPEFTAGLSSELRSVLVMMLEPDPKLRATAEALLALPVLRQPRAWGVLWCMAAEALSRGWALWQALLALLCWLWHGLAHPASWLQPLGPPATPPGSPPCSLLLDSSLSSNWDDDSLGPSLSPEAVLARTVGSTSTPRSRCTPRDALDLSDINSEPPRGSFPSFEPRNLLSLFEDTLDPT
test,system,Dmax [%]
protein level,MDA-MB-157,75
refers to: PKMYT1 protein,HuCCT-1,83
protein level,HCC1599,79

# Sample 3
# Structure (SMILES): C[C@@H]1CN(c2ccc(-c3cc(C(=O)NCCOCCOCCOCCOCCNC(=O)Cn4cc(-c5[nH]cc(C(=O)N[C@@H](CC(N)=O)c6ccc(F)c(Cl)c6)c5-c5ccc(Cl)cc5F)cn4)ccc3F)cc2NC(=O)c2c[nH]c(=O)cc2C(F)(F)F)C[C@H](C)N1C
# Read-out: thermal unfolding
# Method: differential scanning fluorimetry
# Tested at: 5.5 µM
# Direction: higher = more unfolded
# WDR5: WD repeat-containing protein 5 (WDR5, Homo sapiens, UniProt P61964)
# DCAF1: DDB1- and CUL4-associated factor 1 (DCAF1, Homo sapiens, UniProt Q9Y4B6)
# UniProt Q9Y4B6, sequence (whole entry, looked up): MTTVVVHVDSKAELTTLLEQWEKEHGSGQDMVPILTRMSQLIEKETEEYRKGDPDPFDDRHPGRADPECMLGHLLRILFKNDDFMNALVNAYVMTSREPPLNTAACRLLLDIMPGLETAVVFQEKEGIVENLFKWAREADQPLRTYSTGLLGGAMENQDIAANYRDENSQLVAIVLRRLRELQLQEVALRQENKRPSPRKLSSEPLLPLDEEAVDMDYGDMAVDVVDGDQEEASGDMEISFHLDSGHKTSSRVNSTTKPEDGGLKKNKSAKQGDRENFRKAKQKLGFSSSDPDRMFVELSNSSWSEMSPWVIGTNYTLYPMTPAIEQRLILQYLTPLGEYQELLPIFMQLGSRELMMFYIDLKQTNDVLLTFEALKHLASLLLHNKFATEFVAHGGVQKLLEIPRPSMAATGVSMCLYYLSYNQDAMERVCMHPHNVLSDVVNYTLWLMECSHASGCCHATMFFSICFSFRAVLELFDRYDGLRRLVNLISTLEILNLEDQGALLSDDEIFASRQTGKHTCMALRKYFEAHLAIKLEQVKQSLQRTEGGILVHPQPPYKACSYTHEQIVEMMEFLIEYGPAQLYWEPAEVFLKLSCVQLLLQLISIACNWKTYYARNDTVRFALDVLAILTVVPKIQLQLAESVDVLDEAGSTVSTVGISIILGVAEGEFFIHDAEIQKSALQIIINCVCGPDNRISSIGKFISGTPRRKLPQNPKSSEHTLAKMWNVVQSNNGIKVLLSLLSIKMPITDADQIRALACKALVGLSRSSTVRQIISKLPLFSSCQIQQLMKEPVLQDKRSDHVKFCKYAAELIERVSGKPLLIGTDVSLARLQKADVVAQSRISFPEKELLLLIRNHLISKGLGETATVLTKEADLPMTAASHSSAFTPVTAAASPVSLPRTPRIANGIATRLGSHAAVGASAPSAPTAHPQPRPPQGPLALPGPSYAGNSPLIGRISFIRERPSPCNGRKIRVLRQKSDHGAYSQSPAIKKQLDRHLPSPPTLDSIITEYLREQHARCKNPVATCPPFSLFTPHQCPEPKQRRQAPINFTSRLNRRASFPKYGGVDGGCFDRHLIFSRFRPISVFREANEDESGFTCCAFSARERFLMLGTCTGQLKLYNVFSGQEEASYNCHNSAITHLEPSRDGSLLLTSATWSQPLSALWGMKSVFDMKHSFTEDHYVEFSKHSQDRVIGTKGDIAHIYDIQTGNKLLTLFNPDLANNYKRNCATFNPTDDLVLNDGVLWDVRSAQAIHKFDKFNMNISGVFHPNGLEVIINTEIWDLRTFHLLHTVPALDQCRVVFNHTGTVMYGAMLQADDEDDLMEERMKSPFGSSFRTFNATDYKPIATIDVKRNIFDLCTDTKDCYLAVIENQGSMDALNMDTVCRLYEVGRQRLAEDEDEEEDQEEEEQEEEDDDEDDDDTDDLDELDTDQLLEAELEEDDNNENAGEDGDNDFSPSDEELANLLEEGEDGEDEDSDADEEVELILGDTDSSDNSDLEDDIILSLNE
target,setting,SYPRO Orange fluorescence [a.u.]
WDR5,68.41 °C,6800
DCAF1,55.21 °C,19900
DCAF1,68.01 °C,56100
DCAF1,92.21 °C,33000
WDR5,74.41 °C,10100
DCAF1,29.2 °C,8100
WDR5,65.01 °C,7620
WDR5,62.81 °C,8920
DCAF1,28 °C,7830
DCAF1,58.61 °C,31400
WDR5,25.4 °C,14700

# Sample 4
# SMILES: CC[C@@]1(c2ccccc2)C2=C(CC(C)(C)CC2=O)Nc2n[nH]cc21
# Tested at: 1 µM
target,test,scale,remaining binding [%]
"DYRK2 (Homo sapiens, UniProt Q92630)","binding, competition with immobilised ligand",,100
"EPHB1 (Homo sapiens, UniProt P54762)","binding, competition with immobilised ligand",,100
"STK38 (Homo sapiens, UniProt Q15208)","kinase binding, KINOMEscan",reference: DMSO control,84
"Macrophage colony-stimulating factor 1 receptor, autoinhibited (CSF1R, Homo sapiens, UniProt P07333)","binding, competition with immobilised ligand",,100
"MAPK10 (Homo sapiens, UniProt P53779)","binding, competition with immobilised ligand",,100
"HUNK (Homo sapiens, UniProt P57058)","kinase binding, KINOMEscan",reference: DMSO control,74
"NTRK2 (Homo sapiens, UniProt Q16620)","binding, competition with immobilised ligand",,79
"PAK1 (Homo sapiens, UniProt Q13153)","binding, competition with immobilised ligand",,100
"PRKCI (Homo sapiens, UniProt P41743)","kinase binding, KINOMEscan",reference: DMSO control,100
"MAPK11 (Homo sapiens, UniProt Q15759)","kinase binding, KINOMEscan",reference: DMSO control,100
"DAPK2 (Homo sapiens, UniProt Q9UIK4)","kinase binding, KINOMEscan",reference: DMSO control,100
"BMPR1B (Homo sapiens, UniProt O00238)","kinase binding, KINOMEscan",reference: DMSO control,100
"PRKACA (Homo sapiens, UniProt P17612)","binding, competition with immobilised ligand",,100
"Ribosomal protein S6 kinase alpha-5, N-terminal kinase domain (RPS6KA5, Homo sapiens, UniProt O75582)","binding, competition with immobilised ligand",,100
"FLT3 ITD/D835V, human",KINOMEscan,,100
"PIP5K1A (Homo sapiens, UniProt Q99755)","kinase binding, KINOMEscan",reference: DMSO control,98
"DDR1 (Homo sapiens, UniProt Q08345)","kinase binding, KINOMEscan",reference: DMSO control,100
"Tyrosine-protein kinase ABL1, phosphorylated (ABL1, Homo sapiens, UniProt P00519, E255K)","binding, competition with immobilised ligand",,78
"STK32B (Homo sapiens, UniProt Q9NY57)","binding, competition with immobilised ligand",,83
"MAP3K20 (Homo sapiens, UniProt Q9NYL2)","binding, competition with immobilised ligand",,100
"Tyrosine-protein kinase ABL1, non-phosphorylated (ABL1, Homo sapiens, UniProt P00519, Q252H)","binding, competition with immobilised ligand",,65
"PRKAA1 (Homo sapiens, UniProt Q13131)","kinase binding, KINOMEscan",reference: DMSO control,100

# Excerpt of the above (sample 4):
target,test,scale,remaining binding [%]
"STK38 (Homo sapiens, UniProt Q15208)","kinase binding, KINOMEscan",reference: DMSO control,84
"MAPK11 (Homo sapiens, UniProt Q15759)","kinase binding, KINOMEscan",reference: DMSO control,100
"PIP5K1A (Homo sapiens, UniProt Q99755)","kinase binding, KINOMEscan",reference: DMSO control,98
"PRKCI (Homo sapiens, UniProt P41743)","kinase binding, KINOMEscan",reference: DMSO control,100
"PRKACA (Homo sapiens, UniProt P17612)","binding, competition with immobilised ligand",,100
"DAPK2 (Homo sapiens, UniProt Q9UIK4)","kinase binding, KINOMEscan",reference: DMSO control,100
"PRKAA1 (Homo sapiens, UniProt Q13131)","kinase binding, KINOMEscan",reference: DMSO control,100
